Assay results from different studies.
Lines come from different studies, so protocols differ. ± marks the error that the study gave.

| Molecule | tested on | test | system | conditions | how to read | measurement | value |
| --- | --- | --- | --- | --- | --- | --- | --- |
| C[C@H](NP(=O)(Nc1ccn([C@H]2CS[C@@H](COP(=O)(N[C@@H](C)C(=O)OCc3ccccc3)N[C@@H](C)C(=O)OCc3ccccc3)O2)c(=O)n1)N[C@@H](C)C(=O)OCc1ccccc1)C(=O)OCc1ccccc1 | HeLa | cell proliferation | – | 3 d | – | IC50 | ≥ 250000 nM |
| 13,19-didesmethyl spirolide C | nicotinic acetylcholine receptor (Torpedo marmorata) | binding | – | together with: biotin-α-bungarotoxin 80 nM | – | Ki | 0.8 ± 1.22 nM |
| Cc1cc(/C=C/C#N)cc(C)c1Oc1nc(NC2CCN(Cc3ccc(P(C)(C)=O)cc3)CC2)nc2ccsc12 | Human immunodeficiency virus 1 | – | MT-4, wild type IIIB | – | relative to: CC50 over EC50 | selectivity index | 66900 |
| Nc1ncnc2c1ncn2[C@@H]1O[C@H](COP(=O)(O)OP(=O)(O)OP(=O)(O)O)[C@@H](O)[C@H]1O | nicotinamide mononucleotide adenylyltransferase R133A, His-tagged | substrate | – | – | – | kcat | 0.433 s⁻¹ |
| gymnodimine A | nicotinic acetylcholine receptor (Torpedo marmorata) | binding | – | together with: biotin-α-bungarotoxin | – | Hill slope | 0.82 ± 0.09 |
| Pillar[6]MaxQ | – | host-guest binding, isothermal titration calorimetry | PBS | together with: fentanyl | – | Kd | 78 nM |
| COc1cccc(C(=O)N2CCN(C(=O)COc3cccc(C)c3)CC2)c1OC | PC-3 | qPCR, item: INK4A/ARF | – | 250 µM, 12 h | relative to: DMSO | mRNA level increase | ~25% |
| 13-desmethyl spirolide C | nicotinic acetylcholine receptor (Torpedo marmorata) | binding | – | together with: biotin-α-bungarotoxin 80 nM | – | Ki | 1.77 ± 1.14 nM |
| Nc1ccc([As]2SCCS2)cc1 | NCM460 | cell viability, MTS | – | – | – | IC50 | 11100 ± 820 nM |
| 20-methyl spirolide G | nicotinic acetylcholine receptor (Torpedo marmorata) | binding | – | together with: biotin-α-bungarotoxin 80 nM | – | Ki | 6.63 ± 1.09 nM |
| CCCN1CCC=C(c2cc(-c3ccc(C)cc3)no2)C1 | hippocampal neurons | – | – | concentration not given, together with: RML PrPSc | – | dendritic spine density | 0.77 ± 0.01 spines/µm |
| C[C@H](NP(=O)(Nc1ccn([C@H]2CS[C@@H](CO)O2)c(=O)n1)N[C@@H](C)C(=O)OCc1ccccc1)C(=O)OCc1ccccc1 | COLO 320 | cell proliferation | – | 72 h | – | IC50 | > 250000 nM |
| O=C(Cn1c(-c2ccccn2)nc2ccccc21)Nc1ccc2ccccc2c1 | Helicobacter pylori | cell growth | G27, Brucella broth | culture exiting stationary phase | – | minimum concentration blocking growth | 20 µM |
| CSCC[C@@H]1NC(=O)[C@H](CC(C)C)NC(=O)[C@H](CCCNC(=N)N)NC(=O)[C@H](CO)NC(=O)[C@@H]2CSSC[C@@H]3NC(=O)[C@H](CO)NC(=O)CNC(=O)[C@H]([C@@H](C)O)NC(=O)[C@H](CSSC[C@H](N)C(=O)N[C@@H](CCCCN)C(=O)NCC(=O)N[C@@H](CCCCN)C(=O)NCC(=O)N[C@@H](C)C(=O)N[C@@H](CCCCN)C(=O)N2)NC(=O)[C@H](CSSC[C@@H](C(N)=O)NC(=O)[C@H](CCCCN)NC(=O)CNC(=O)[C@H](CO)NC(=O)[C@H](CCCNC(=N)N)NC3=O)NC(=O)[C@H](CC(=O)O)NC(=O)[C@H](Cc2ccc(O)cc2)NC1=O | Staphylococcus aureus | – | – | – | – | MIC | > 500 µM |
| C#CC(=O)Nc1ccc([As]2SCCS2)cc1 | DLD-1 | cell viability, MTS | – | – | – | IC50 | 1410 ± 590 nM |
| CN1CC[C@]23c4c5ccc(O)c4O[C@H]2[C@@H](O)C=C[C@H]3[C@H]1C5 | – | locomotor activity | C57BL/6J male mice | subcutaneous | – | ED50 | 3.3 mg/kg |
| pinnatoxin A | nicotinic acetylcholine receptor (Torpedo marmorata) | binding | – | Pecten maximus extract 25 mg/mL, together with: biotin-α-bungarotoxin | – | IC50 | 78.3 ± 15.3 nM |
| AEOL 10150 | – | multiplex immunoassay | rat, status epilepticus, piriform cortex | sc, 7 mg/kg every 4 h, 24 h, from 5 min post-SE | – | IL-6 increase | decreased |
| NC12CC3CC(CC(C3)C1)C2 | Influenza A virus | viral replication, plaque size reduction | MDCK, A/Swine/Minnesota/34-0818/2011 (H1N2) | – | – | EC50 | < 1000 nM |
